Results gathered from unrelated publications.
Every numbered part comes from another study and shows a few of its results, in no order.

Sample 1 — technique: protein binding microarray; molecule type: double-stranded DNA, one strand shown; sample: in vitro; tested at: not given; relative to: not given; reading: higher = stronger binding
Target: Histone acetyltransferase KAT6A, winged helix 1, GST fusion (KAT6A, Homo sapiens, UniProt Q92794, residues 1-85)
Setting: 8-mer, flanks averaged, mean of 2 arrays, mostly near background
Construct (chain): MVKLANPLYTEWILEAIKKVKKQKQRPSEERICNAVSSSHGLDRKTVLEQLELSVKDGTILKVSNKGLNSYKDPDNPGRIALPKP
| Strand | E-score |
| --- | --- |
| CACTGCTG | -0.102 |
| CTGCAGAC | -0.0417 |
| CATGGCAA | -0.0432 |
| AAGCAGCA | -0.182 |
| CTAAGGGA | -0.0602 |
| ACCGGGTG | 0.329 |
| ATCGGCAG | 0.139 |
| AACTAATT | -0.0781 |
| CGGCCTTA | 0.236 |
| GATGGTAC | -0.0459 |
| AATAGCAC | -0.105 |
| GTAGGTCA | -0.132 |
| CTCACGCC | 0.234 |
| CTATTGGA | -0.0479 |
| AATAGGGT | -0.113 |
| ATATCATG | -0.12 |
| TCAAGCAA | -0.207 |
| GTCGCCGA | 0.316 |

Sample 2 — technique: RNA Bind-n-Seq; molecule type: RNA; sample: in vitro; tested at: 365 nM; relative to: no-protein control; reading: higher = stronger binding
Target: RNA binding protein fox-1 homolog 2, RRM domain, GST-SBP tag (RBFOX2, Homo sapiens, UniProt O43251-10, residues 100-194)
Setting: natural RNA segment, single round, ends assumed
Target sequence (chain): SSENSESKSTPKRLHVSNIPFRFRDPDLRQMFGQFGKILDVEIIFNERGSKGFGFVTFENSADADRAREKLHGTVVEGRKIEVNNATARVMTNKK
| Strand | RBNS enrichment (R) |
| --- | --- |
| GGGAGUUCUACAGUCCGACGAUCCAUGGCCACUUCAAAGUGAAGCCAGCAAAGUGAUAAUACUUUAUCAUUUAGUAUUAUCAUAAAGUAUUAAUACUUUGUCAUAAAGUCCUCCUUGAGCCCAGGGACCAUGGUGGAAUUCUCGGGUGCCAA | 0.28 |
| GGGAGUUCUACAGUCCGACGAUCGUUCUUCAAGCCAGCUCUAGGCUUCAGGCCGAGCCAGGUUCACACUCAGAAAGAGGUCUCCCCAUCCCCAUUCGGGGCUGACGAUGGGGGGCUGAUGGCUGCCCCUGCGUUGGAAUUCUCGGGUGCCAA | 0.216 |
| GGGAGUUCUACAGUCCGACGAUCAAAUUUAAAGUUUCUUUACUUCAAUUAACUUAAAGGACCAAUAAACCCAUAAAAGAUGCUUUCUUUAUCUGGAGUCAUGUCCUCAUUUGUACCUUUUUGUAAGGCAGAAAUGGAAUUCUCGGGUGCCAA | 0.372 |
| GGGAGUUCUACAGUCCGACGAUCCAGUGAUCAUCUUGUUCAUCUUGUUCAGUCCUUUCUUGUGUGAUUGGAAUUAUUCAUCCCCUUUGAAAGAUGAGAAGGUUGAGAUGCAAAGAGUCUACCUUUCCAAGUUCUGGAAUUCUCGGGUGCCAA | 0.436 |
| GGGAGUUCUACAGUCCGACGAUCUAAUCUUUCUGUAAGCCUCUCAAGUACUGGGAUUACAGGCAUGAACCACCAUGCCUAUAGCCACAGCAACCCAUUCUUUUGGAGGUUUUAUAGUUCUCCAUUUGUCUCAUUGGAAUUCUCGGGUGCCAA | 0.304 |
| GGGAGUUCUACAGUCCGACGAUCUAAGGAACUUCCCAGAUGAUUAGAAGUACAAGACUUGCUUUGUUUUGUUUUCUUUGGUUUUUGUGUUUUUUUGGAGUUUGGCUGGAAGAGGUUUCUGUAAACCUGAAGCCUGGAAUUCUCGGGUGCCAA | 1.26 |
| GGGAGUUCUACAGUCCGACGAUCCUCCGUGCUGUCCAGGAAUUGUUUUAUGUAUUAUUGUCAUUGCAGAAAAGGUAGUGGCCGAGCUGGUAUGGGCACAGACAGAUUGCUUUGUUCUUUCAUUUCUCCCAGCAUGGAAUUCUCGGGUGCCAA | 6.8 |
| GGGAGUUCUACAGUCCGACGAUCGGCUUCCUUCAAACUAUUGUUUGUAUACUAUAUUUGCUUGGCAAGGGGAGGUAGCUUUCUGUAUAAGACUCUGAUUCUAAAGAGAUGAAGACUUGUGUGAAUGUACAAAGUGGAAUUCUCGGGUGCCAA | 0.85 |

Sample 3 — technique: universal PBM; molecule type: double-stranded DNA, one strand shown; sample: in vitro; tested at: not given; reading: higher = stronger binding
Target: Sal-like protein 4, full length isoform B (SALL4, Homo sapiens, UniProt Q9UJQ4-2, residues 1-616)
Setting: 8-mer, flanks averaged, mean of replicates
Target sequence (chain): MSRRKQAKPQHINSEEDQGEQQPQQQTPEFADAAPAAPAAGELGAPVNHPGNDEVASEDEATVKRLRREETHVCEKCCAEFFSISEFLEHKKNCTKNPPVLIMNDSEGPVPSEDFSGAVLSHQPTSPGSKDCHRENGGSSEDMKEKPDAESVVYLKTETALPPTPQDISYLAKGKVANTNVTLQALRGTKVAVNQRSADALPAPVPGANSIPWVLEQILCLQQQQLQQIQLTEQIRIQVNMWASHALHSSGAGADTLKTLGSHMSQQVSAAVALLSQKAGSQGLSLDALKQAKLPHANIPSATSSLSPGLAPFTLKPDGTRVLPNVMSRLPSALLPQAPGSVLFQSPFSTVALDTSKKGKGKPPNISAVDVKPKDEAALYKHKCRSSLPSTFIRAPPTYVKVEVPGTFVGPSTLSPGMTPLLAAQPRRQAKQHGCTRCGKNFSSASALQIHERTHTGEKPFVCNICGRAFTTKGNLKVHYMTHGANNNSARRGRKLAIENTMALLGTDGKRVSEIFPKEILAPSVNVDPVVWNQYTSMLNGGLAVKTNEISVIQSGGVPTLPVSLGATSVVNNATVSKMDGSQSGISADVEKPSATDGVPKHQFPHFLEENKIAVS
| Strand | E-score |
| --- | --- |
| TCGGAACA | -0.0276 |
| ACGTCGAA | -0.0933 |
| CCAGTGAC | -0.217 |
| AATACATT | 0.302 |
| GAATACCC | -0.252 |
| TTCCTCAA | 0.0869 |
| CATGTGGA | -0.0146 |
| CTAGGCAG | -0.197 |
| AGAGACAT | 0.139 |
| CAGAGGGC | -0.253 |
| CCGGGCAG | -0.396 |
| ACGGTACG | -0.086 |
| AAGCTCGC | -0.246 |
| CCCCACAA | -0.106 |
| AAATAATT | 0.41 |
| CTGCCACA | -0.152 |
| AACTTTAT | 0.296 |
| CTTCTACC | 0.0085 |
| ACCTAGCC | -0.149 |
| AACGGCCT | -0.19 |

Sample 4 — technique: RNA Bind-n-Seq; molecule type: RNA; sample: in vitro; tested at: 200 nM; setting: whole 134-nt RNA, ends assumed; together with: 150 mM KCl; relative to: input library; reading: higher = stronger binding
Target: Ras GTPase-activating protein-binding protein 1, full length (G3BP1, Homo sapiens, UniProt Q13283)
UniProt Q13283, sequence (whole entry, looked up): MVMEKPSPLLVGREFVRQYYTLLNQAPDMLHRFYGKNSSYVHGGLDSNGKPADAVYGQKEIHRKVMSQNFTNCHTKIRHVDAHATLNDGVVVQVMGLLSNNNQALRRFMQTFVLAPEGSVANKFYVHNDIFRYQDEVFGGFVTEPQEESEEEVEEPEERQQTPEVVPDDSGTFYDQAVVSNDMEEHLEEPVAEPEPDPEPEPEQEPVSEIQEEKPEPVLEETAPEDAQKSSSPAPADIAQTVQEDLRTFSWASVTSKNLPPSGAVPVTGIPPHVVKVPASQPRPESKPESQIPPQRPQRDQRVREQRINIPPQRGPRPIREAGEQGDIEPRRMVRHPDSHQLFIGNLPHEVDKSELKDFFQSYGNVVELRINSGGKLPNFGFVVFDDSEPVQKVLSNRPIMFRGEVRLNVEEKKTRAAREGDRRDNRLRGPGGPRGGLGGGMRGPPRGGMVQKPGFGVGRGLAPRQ
| Strand | log2 enrichment |
| --- | --- |
| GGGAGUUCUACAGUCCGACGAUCCUCAAGUCCUGUGCUACACAUCGUAUGUACCGAAUCGGGUGGGUUUGGGAGGGAAAGUAUUAUGUUACGCCGUUCGGAUCUGCACUUCCAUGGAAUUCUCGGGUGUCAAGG | 1.11 |
| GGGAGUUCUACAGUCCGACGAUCAGUCCUGUGCUACACAUCGUAUGUACCGAAUCGGGUUUUGGGGUUUUGGUUUUGGGGAAAGUAUUAUGUUACGCCGUUCGGAUCUGCACUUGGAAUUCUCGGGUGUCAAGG | -0.495 |
| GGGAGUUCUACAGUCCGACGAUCCCUGUGCUACACAUCGUAUGUACCGAAUCGGGGAAAAAGGGGUUUUUUUGGGGUUUGGGGAAAGUAUUAUGUUACGCCGUUCGGAUCUGCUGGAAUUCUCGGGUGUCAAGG | 0.412 |
| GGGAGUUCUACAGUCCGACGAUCAAGUCCUGUGCUACACAUCGUAUGUACCGAAUCGGGGAAAAGGGAAAAGGGAAAAGGAAAGUAUUAUGUUACGCCGUUCGGAUCUGCACUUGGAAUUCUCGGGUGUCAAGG | -0.574 |
| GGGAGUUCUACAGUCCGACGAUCUUAGAAGAAGAAGAUGGAGUGUGGGAGAAUGGACUUUCCUAUGAAUGCCGUACUCUGCUUUUCAAAGCAGUUCACAAUCUAUUGGAACGGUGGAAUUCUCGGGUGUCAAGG | -1.36 |
| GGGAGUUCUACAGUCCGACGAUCUCAAGUCCUGUGCUACACAUCGUAUGUACCGAAUCGGCCCGGCCCGGGGCCCGGGAAAGUAUUAUGUUACGCCGUUCGGAUCUGCACUUCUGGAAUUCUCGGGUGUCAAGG | -0.499 |
| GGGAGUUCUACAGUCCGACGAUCUGGCCCUGGUGGCAUGCGGGGAGGAAGAGGUGGCCUCAUGGAUCGUGGUGGUGCCGGUGGAAUGUUCAGAGGUGGCCGUGGUGGAGACAGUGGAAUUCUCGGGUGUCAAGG | 0.241 |
| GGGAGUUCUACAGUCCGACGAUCUGUGCUACACAUCGUAUGUACCGAAUCGGGGAAAAAGGGGAAAAAAAGGGGUUUUUUUGGGGAAAGUAUUAUGUUACGCCGUUCGGAUCUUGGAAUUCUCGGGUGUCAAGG | -0.0254 |
| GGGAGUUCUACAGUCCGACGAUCUGGGAGGUGGAUUUUGUUUAUUUUUUUAGCUCAUUUCCAGGGGUGGGAAUUUUUUUUUAAUAUAUGUCAUGAAUAAAGUUGUUUUUGAAAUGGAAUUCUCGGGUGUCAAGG | 0.158 |

A few entries again (sample 3):
| Strand | E-score |
| --- | --- |
| CATGTGGA | -0.0146 |
| CTAGGCAG | -0.197 |
| AGAGACAT | 0.139 |
| CAGAGGGC | -0.253 |
| CCGGGCAG | -0.396 |
| ACGGTACG | -0.086 |
